Measured values gathered from unrelated publications.

Structure (SMILES)	system	setting	AUC(0-inf)
COc1ccccc1/C=C/CNCC(O)COc1ccc(Nc2ccccc2)cc1 (racemic)	mouse, plasma	intraperitoneal, 10 mg/kg	1140 ng·h/mL
C/C(N)=N/C(=N\S(=O)(=O)c1ccc(C(F)(F)F)cc1)N1C[C@H](c2ccccc2)C(c2ccc(Cl)cc2)=N1	male C57BL/6 mouse, kidney	intravenous, 10 mg/kg	64900 ng·h/mL
Cc1ncsc1-c1ccc(CNC(=O)[C@@H]2C[C@@H](O)CN2C(=O)[C@@H](NC(=O)COCC(C)(COCCOCCOCCNC(=O)C[C@@H]2N=C(c3ccc(Cl)cc3)c3c(sc(C)c3C)-n3c(C)nnc32)COCCOCCOCCNC(=O)C[C@@H]2N=C(c3ccc(Cl)cc3)c3c(sc(C)c3C)-n3c(C)nnc32)C(C)(C)C)cc1	male C57BL/6 mouse, plasma	intravenous, 5 mg/kg, single dose	27600 ng·h/mL
O=C(O)c1ccc(/C=C2\SC(=S)N(Cc3cccc(C(F)(F)F)c3)C2=O)cc1	C57BL/6 mouse, blood	oral, 10 mg/kg	8230 ng·h/mL
Cc1cc(NC(=O)[C@H](O)c2cc(F)cc(F)c2)ccc1-c1cnc(N)c(C(=O)NC(C)C)c1	female nude mouse, plasma	oral, 10 mg/kg, single dose	5260 ng·h/mL
Cn1c2cc([S+](C)[O-])sc2c2cnn(Cc3cccc(N)c3)c(=O)c21 (centres unmarked)	male BALB/c mouse, plasma	intraperitoneal, 10 mg/kg, single dose	27000 ng·h/mL
COc1cc(OCCN2CCOCC2)cnc1-c1nc2cc(OC(F)(F)F)ccc2[nH]1	mouse, plasma	oral, 100 mg/kg	0.037 µM·h
Cn1ccc(-c2cc(Cl)c(Cl)c3[nH]c4c(c23)CN(C(=O)CO)CC4)n1	C57BL/6 mouse, blood	oral, 20 mg/kg	110 µM·h
COc1cnc2cccc(N3CCc4c(cc(Cn5ccnc5)cc4-c4cn(C)nc4C(F)(F)F)C3=O)c2c1	male CD-1 mouse, plasma	intravenous, 3 mg/kg	2020 ng·h/mL
CCOC(=O)c1nc2cc(Cl)c(Cl)cc2nc1N1CCN(C(=O)Nc2ccc(N3CCNCC3)cc2)CC1	male mouse, plasma	intravenous, 3 mg/kg	755 ng·h/mL
O=C1CCC(N2Cc3cc(C(=O)O)c(F)cc3C2=O)C(=O)N1 (centres unmarked)	male CD-1 mouse, plasma	intravenous, 1 mg/kg	548 ng·h/mL
Nc1ccc(-c2cc(Cl)c(Cl)c3[nH]c4c(c23)CN(C(=O)CO)CC4)cn1	C57BL/6 mouse, blood	oral, 20 mg/kg	3.24 µM·h
CCn1cc(-c2cc(Cn3ccnc3)cc3c2CCN([C@H](c2cc(OC)ccn2)C2CC2)C3=O)c(C(F)(F)F)n1	male CD-1 mouse, plasma	oral, 50 mg/kg	20300 ng·h/mL
CC(=O)N1c2ccc(-c3ccc(CNC(=O)c4cn5cc(-c6cnc(N)nc6)nc(N6CCOCC6)c5n4)cc3)cc2CC[C@@H]1C	female C57BL/6 mouse, plasma	intraperitoneal, 45 mg/kg, single dose	165 µM·h
